Published values from different studies.
Compare with care: the assays were run in different laboratories. ± gives the spread as reported.

O=S(=O)(c1ccc(-c2ccc3ncnc(Nc4ccc(O)c(Cl)c4)c3c2)cc1)N1CCOCC1
EC50 (Leishmania major; parasite growth, resazurin; promastigote): > 15000 nM

CCC(=O)N1CCN(c2ccc(NC(=O)c3ccc([N+](=O)[O-])o3)cc2Cl)CC1
EC50 (Mus musculus; gene silencing, high-content imaging; LDR reporter GFP cells; confirmation, mean of two runs): 1780 nM

CN(C)S(=O)(=O)c1ccccc1-c1ccc2ncnc(Nc3ccc(OCc4cccc(F)c4)c(Cl)c3)c2c1
EC50 (Leishmania major; parasite growth, resazurin; promastigote): 2800 nM

CC1=C/C(=N\N=C(/S)Nc2cccnc2)CC(C)(C)C1
EC50 (Mus musculus; gene silencing, high-content imaging; LDR reporter GFP cells; confirmation, mean of two runs): 3160 nM

CN1CCN(c2cccc(-c3ccc4ncnc(Nc5ccc(OCc6cccc(F)c6)c(Cl)c5)c4c3)c2)CC1
EC50 (Leishmania major; parasite growth, resazurin; promastigote): 1900 nM

Cc1[nH]c2ccccc2c1CC(=O)N[C@@H](Cc1ccccc1)C(=O)N(C)c1ccccc1
EC50 (HIV-2; viral replication): 2200 ± 500 nM

Cc1ccc2c(c1)nc(NC(=O)c1cccc(C(F)(F)F)c1)n2[C@H]1CC[C@H](N)CC1
EC50 (Trypanosoma brucei brucei; cell growth, CellTiter-Glo; Lister 427 bloodstream form; 48 h, mean of 2 experiments): 288 nM

CN(C(=O)[C@H](Cc1ccccc1)NC(=O)Cc1c[nH]c2ccc(O)cc12)c1ccc(Cl)cc1
EC50 (HIV-2; viral replication): 320 ± 70 nM

O=C(CSc1cccc[n+]1[O-])c1ccccc1Br
EC50 (Mus musculus; gene silencing, high-content imaging; LDR reporter GFP cells; retest, mean of two runs): 15800 nM

Fc1cccc(COc2ccc(Nc3ncnc4ccc(-c5ccc(N6CCNCC6)cc5)cc34)cc2Cl)c1
EC50 (Leishmania major; parasite growth, resazurin; promastigote): > 15000 nM

CC(C)n1ncc2c(C(=O)NCC3CN(C)C3)cc(C3CC3)nc21
EC50 (Enterovirus D68; cytopathic effect; RD, US/MO/14-18947): 110 nM

Oc1c(/N=N/c2ccccn2)ccc2ccccc12
EC50 (Mus musculus; gene silencing, high-content imaging; LDR reporter GFP cells; confirmation, mean of two runs): 31600 nM

CCCCCC(=O)NC(CC(=O)N(CC)CC)C(=O)NC(Cc1ccc(F)cc1)C(=O)NC(Cc1ccc(F)cc1F)C(=O)C1(C)CO1 (stereo not shown)
EC50 (Trypanosoma brucei; parasite growth, SYBR Green; RHODESIENSE): 156 nM
